Experimental data pooled from the literature.
Each line is one published result; not all experiments were run side by side. In brackets after ≈: the same amount, converted by molar mass.

Compound	test	test system	setting	how to read	quantity	value
C=CC(=O)N1CCCC(n2c(=O)c3ncccc3n(Cc3ccc(Oc4ccccc4)cc3)c2=O)C1 (centres unmarked)	metabolic stability	human, hepatocytes	1 µM, 30 min	–	compound remaining	77.3%
N=C(N)NCCC[C@@H]1NC(=O)[C@H](CCCNC(=N)N)NC(=O)[C@H](CCCNC(=N)N)NC(=O)[C@H](CCCNC(=N)N)NC(=O)[C@H](Cc2ccc3ccccc3c2)NC(=O)[C@H](Cc2ccccc2)NC(=O)CCSSC[C@@H](C(=O)N[C@@H](CCCCNC(=S)Nc2ccc3c(c2)C(=O)OC32c3ccc(O)cc3Oc3cc(O)ccc32)C(N)=O)NC1=O	chemical stability	human, serum	–	–	half-life	~6 h
CCN(CC)c1ccc2c(c1)O[B-]1(c3ccccc3C#N)OC(=O)C(c3ccccc3)=N[N+]1=C2 (centres unmarked)	–	toluene	–	–	fluorescence quantum yield	0.59
O=C(c1ccc(C2CCCCC2)cc1)N1CCCC1	hepatocyte stability	cryopreserved human hepatocytes	1 µM	–	hepatic clearance	1.08 L/h/kg
CC(=O)N[C@H](CC(=O)O)C(=O)N[C@H](Cc1c[nH]c2ccccc12)C(=O)N[C@H](Cc1ccccc1)C(=O)N[C@H](CCCCN)C(=O)N[C@H](C)C(=O)N[C@H](Cc1ccccc1)C(=O)N[C@H](Cc1ccc(O)cc1)C(=O)N[C@H](CC(=O)O)C(=O)N[C@H](CCCCN)C(=O)N[C@@H](C(=O)N[C@H](C)C(=O)N[C@H](CCC(=O)O)C(=O)N[C@H](CCCCN)C(=O)N[C@H](Cc1ccccc1)C(=O)N[C@H](CCCCN)C(=O)N[C@H](CCC(=O)O)C(=O)N[C@H](C)C(=O)N[C@H](Cc1ccccc1)C(N)=O)C(C)C	–	high-risk statin-treated subjects with CHD, plasma	oral, dose not given, median, doses pooled	–	AUC(0-t)	0.0272 µg·h/mL
CNC(=O)c1ccc(C2CCCCC2)cc1	hepatocyte stability	cryopreserved rat hepatocytes	1 µM	–	hepatic clearance	2.94 L/h/kg
[2H]C([2H])([2H])Oc1cc2c(cc1OC([2H])([2H])[2H])[C@H]1C[C@H](O)[C@H](CC(C)C)CN1CC2 (relative stereo)	refers to: deuterated analyte	healthy human male, plasma	oral, 25 mg, median, [14C]-deutetrabenazine dosed	–	Tlag	0.33 h
CC(C)C[C@H](NC(=O)[C@H](CCCN)NC(=O)CNC(=O)[C@@H](NC(=O)[C@H](C)NC(=O)[C@@H]1CSCSC[C@H](NC(=O)CC[C@H](N)C(=O)O)C(=O)N[C@@H](CC(N)=O)C(=O)N[C@@H]([C@@H](C)O)C(=O)N[C@@H](C)C(=O)N[C@@H]([C@@H](C)O)C(=O)N1)[C@@H](C)O)C(=O)N[C@@H](C)C(=O)N[C@@H](CCC(=O)O)C(=O)N[C@@](C)(Cc1ccccc1)C(=O)N[C@@H](CC(C)C)C(=O)N[C@H](C(=O)N[C@@H](CCCNC(=N)N)C(=O)N[C@@H](CO)C(=O)N[C@@H](CO)C(=O)N[C@@H](CC(N)=O)C(=O)N(C)[C@@H](CC(N)=O)C(=O)N[C@@H](Cc1ccccc1)C(=O)NCC(=O)N1CCC[C@H]1C(=O)N[C@@H](CCCCNC(=O)CC[C@H](NC(=O)CC[C@H](NC(=O)CCCCCCCCCCCCCCCCCCC(=O)O)C(=O)O)C(=O)O)C(=O)N[C@@H](CC(C)C)C(=O)N1CCC[C@H]1C(=O)N1CCC[C@H]1C(=O)N[C@H](C(=O)N[C@@H](CCC(=O)O)C(=O)N[C@H](C(=O)NCC(=O)N[C@@H](CO)C(=O)N[C@@H](CC(N)=O)C(=O)N[C@H](C(=O)N[C@@H](Cc1ccc(O)cc1)C(N)=O)[C@@H](C)O)C(C)C)[C@@H](C)O)C(C)C	–	human, plasma	subcutaneous, 0.4 mg, single dose, healthy volunteers	–	half-life	352 h
O=S1(=O)CC2CCCCC2CS1 (centres unmarked)	phase solubility, NMR	water	25 °C, with: hydroxypropyl-β-cyclodextrin 614 mM	–	solubility	70 mM (≈ 14.4 mg/mL)
Cc1cc2c(cc1O)C=C1C=CC(=O)C(C)(C)[C@H]1CC2	–	male Sprague-Dawley rat, plasma	intravenous, 2 mg/kg	–	MRT(0-t)	0.57 h
CN(C)c1cccc(-c2ccc([C@H]3[C@@H](F)[C@@H](F)C[C@@H](F)[C@H]3F)cc2)c1	liver microsome stability	rat liver microsomes	1 µM	–	hepatic clearance	2.64 L/h/kg
Cc1[nH]nc2c1N=C(c1ccccc1Cl)c1cnc(N3CCOCC3)cc1N2	–	dog plasma	–	–	unbound fraction	0.0247
OCCCN1CC[C@@H]2C[C@H]1c1cc(-c3ccc(C(F)(F)F)cc3)ccc12	–	plasma	ip, concentration not given	–	t1/2	21.7 h
CS(=O)(=O)c1ccc(-c2ccc([C@H]3[C@@H](F)[C@@H](F)C[C@@H](F)[C@H]3F)cc2)cn1	hepatocyte stability	cryopreserved mouse hepatocytes	1 µM	–	hepatic clearance	1.26 L/h/kg
COc1cccc(OC)c1-c1cc(C(=O)NC2(C(=O)O)C3CC4CC(C3)CC2C4)nn1-c1ccc(C(=O)N(C)CCCN(C)CCCN(C)C(=O)[C@H](CCCCNC(=O)[C@H](CC(C)C)NC(=O)C2OC2C(=O)O)NC(=O)CN2CCN(CC(=O)[O-])CCN(CC(=O)[O-])CCN(CC(=O)[O-])CC2)cc1C(C)C.[177Lu+3] (mixture of isomers)	–	mouse, HT-29 xenograft	24 h post injection, biodistribution	relative to: tumour over bone uptake	tumour-to-bone ratio	8.43
O=C(NCCOc1ccc(F)cc1)c1ccc(C2CCCCC2)cc1	liver microsome stability	rat liver microsomes	1 µM	–	hepatic clearance	3.12 L/h/kg
CC(=O)N([O-])CCCCCNC(=O)CCC(=O)N([O-])CCCCCNC(=O)CCC(=O)N([O-])CCCCCN.[89Zr+4]	–	mouse, heart	24 h	–	tracer uptake	0.02 %ID/g

A few entries again:
Compound	test	test system	setting	how to read	quantity	value
CS(=O)(=O)c1ccc(-c2ccc([C@H]3[C@@H](F)[C@@H](F)C[C@@H](F)[C@H]3F)cc2)cn1	hepatocyte stability	cryopreserved mouse hepatocytes	1 µM	–	hepatic clearance	1.26 L/h/kg
COc1cccc(OC)c1-c1cc(C(=O)NC2(C(=O)O)C3CC4CC(C3)CC2C4)nn1-c1ccc(C(=O)N(C)CCCN(C)CCCN(C)C(=O)[C@H](CCCCNC(=O)[C@H](CC(C)C)NC(=O)C2OC2C(=O)O)NC(=O)CN2CCN(CC(=O)[O-])CCN(CC(=O)[O-])CCN(CC(=O)[O-])CC2)cc1C(C)C.[177Lu+3] (mixture of isomers)	–	mouse, HT-29 xenograft	24 h post injection, biodistribution	relative to: tumour over bone uptake	tumour-to-bone ratio	8.43
